Experimental data gathered from unrelated publications.
Lines come from different studies, so protocols differ. Values joined by “and” are separate records of one study, mostly repeats; a detail may differ. Numbers after ± are the reported error.
Chain of UniProt Q9HCG7 (whole entry, looked up): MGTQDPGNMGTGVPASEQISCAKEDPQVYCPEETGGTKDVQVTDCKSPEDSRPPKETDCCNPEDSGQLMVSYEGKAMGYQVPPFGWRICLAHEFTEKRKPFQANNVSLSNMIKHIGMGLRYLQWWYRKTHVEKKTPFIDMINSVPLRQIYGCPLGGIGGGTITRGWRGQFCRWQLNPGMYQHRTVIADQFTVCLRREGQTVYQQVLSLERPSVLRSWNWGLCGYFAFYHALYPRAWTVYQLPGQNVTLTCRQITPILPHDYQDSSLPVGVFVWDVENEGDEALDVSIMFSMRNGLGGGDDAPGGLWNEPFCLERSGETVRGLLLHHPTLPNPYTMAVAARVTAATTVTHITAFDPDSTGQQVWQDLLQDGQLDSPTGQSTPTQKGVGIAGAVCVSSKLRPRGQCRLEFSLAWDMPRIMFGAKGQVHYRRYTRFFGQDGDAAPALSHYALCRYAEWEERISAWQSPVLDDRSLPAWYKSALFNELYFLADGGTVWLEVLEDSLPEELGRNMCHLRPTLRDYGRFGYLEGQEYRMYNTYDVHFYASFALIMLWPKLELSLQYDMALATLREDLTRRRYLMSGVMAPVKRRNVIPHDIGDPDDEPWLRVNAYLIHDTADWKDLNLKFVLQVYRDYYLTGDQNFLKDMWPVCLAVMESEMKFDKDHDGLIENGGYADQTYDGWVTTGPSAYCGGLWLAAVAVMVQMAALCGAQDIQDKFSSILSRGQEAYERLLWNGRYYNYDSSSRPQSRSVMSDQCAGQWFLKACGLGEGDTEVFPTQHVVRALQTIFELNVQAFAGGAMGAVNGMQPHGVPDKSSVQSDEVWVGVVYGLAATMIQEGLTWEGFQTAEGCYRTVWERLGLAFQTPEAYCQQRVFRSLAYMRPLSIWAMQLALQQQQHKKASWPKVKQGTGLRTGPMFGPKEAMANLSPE

CCCCN1C(=O)c2cccc3c(NCCCCN4CCOCC4)ccc(c23)C1=O  molar extinction coefficient (chloroform): 5700 M⁻¹ cm⁻¹
C=C(NC(=O)c1csc(-c2nc3c(cc2O)-c2nc(cs2)C(=O)NC(C(C)O)C(=O)NC(=C(C)OC)c2nc(cs2)C(=O)NC2c4nc(cs4)C(=O)NC(COC(=O)c4c5c6c(cccc6n4O)COC(=O)C(OC4CC(C)(O)C(N(C)C)C(C)O4)C2OC5)c2nc-3cs2)n1)C(N)=O (centres unmarked)  AUC(0-t) (female cynomolgus monkey, plasma; intravenous, 1 mg/kg, single dose, infusion): 7930 ng·h/mL
CSCC[C@H](N)C(=O)N[C@@H](CO)C(=O)N[C@H](C(=O)N[C@@H](C)C(=O)NCC(=O)N[C@@H](CC(C)C)C(=O)N[C@@H](CCCCN)C(=O)N[C@@H](CCCCN)C(=O)N[C@@H](CCC(N)=O)C(=O)N[C@@H](Cc1c[nH]c2ccccc12)C(=O)N[C@@H](Cc1c[nH]cn1)C(=O)N[C@@H](CCCCN)C(=O)N[C@@H](C)C(=O)N[C@H](C(=O)N[C@@H](CCC(N)=O)C(=O)N[C@@H](CCCCN)C(=O)N[C@H](C(=O)N[C@@H](CO)C(=O)N[C@@H](CCC(=O)O)C(=O)N[C@@H](CCCCN)C(=O)N[C@H](C(=O)NCC(=O)NCC(=O)N[C@@H](C)C(N)=O)C(C)C)C(C)C)[C@@H](C)O)C(C)C  fractional helicity (circular dichroism; ~60% TFE): 63.8%
CC1(N(CC(=O)O)CC(=O)O)CN(CC(=O)O)CCN(CC(=O)O)C1  protonation constant (log) (pH-potentiometry, measured: logK5H; 0.15 M NaClO4; 25 °C): 1
CCC1C=C(C)C(O)C(C)CC(OC)C2OC(O)(C(=O)C(=O)N3CCCCC3C(=O)OC(C(C)=CC3CCC(O)C(OC)C3)C(C)C(O)CC1=O)C(C)CC2OC (centres unmarked)  blood concentration (C57BL/6 mouse, blood; topical, dose not given, 1 h, daily dosing for 4 days): not detected
CC[C@H](C)[C@@H]1NC(=O)[C@H](Cc2ccc(O)cc2)NC(=O)CCCSC[C@@H](C(=O)N(CC(=O)N[C@@H](CC(C)C)C(=O)NCC(N)=O)Cc2ccc(F)cc2)NC(=O)[C@H](CC(N)=O)NC(=O)[C@H](CCC(N)=O)NC1=O  tmax (healthy women, plasma; intranasal): ~0.25 h
COc1cccc(OC)c1-c1cc(C(=O)NC2(C(=O)O)C3CC4CC(C3)CC2C4)nn1-c1ccc(C(=O)N(C)CCOCCOCCN(C)C(=O)[C@H](CCCCNC(=O)[C@H](CC(C)C)NC(=O)C2OC2C(=O)O)NC(=O)CN2CCN(CC(=O)[O-])CCN(CC(=O)[O-])CCN(CC(=O)[O-])CC2)cc1C(C)C.[177Lu+3] (mixture of isomers)  tumour-to-brain ratio (mouse, HT-29 xenograft; 4 h post injection, biodistribution; reference: tumour over brain uptake): 26
O=C1NC2(CC2)COc2ncc(F)cc2[C@H]2COCCN2c2ccn3ncc1c3n2  PCE/(PCE+NCE) ratio (bone marrow micronucleus test; NIH mice, male; oral, 200 mg/kg/day, 3 days): 0.278 ± 0.163
Cc1nc(N)nc2c1C(=O)N[C@@H](c1ccc(F)cc1-c1cccc(O[11CH3])n1)C2  tracer uptake (ex vivo biodistribution; healthy mice, kidneys; 60 min post-injection, baseline, vehicle pre-treatment): 3.4 ± 0.5 %ID
COc1ccc2c(c1)CCn1c[n+]3c(c1-2)-c1ccc(OC)cc1CC3  haemoglobin (female NSG mice, blood; 6 mg/kg, day 7, 5 days per week): 13.6 ± 1 g/dL
O=C(NS(=O)(=O)c1cccs1)c1cc2ccccc2n1Cc1ccc(Br)c2ccccc12  MRT(0-inf) (Sprague-Dawley rat, male, plasma; oral, 20 mg/kg): 2.77 h
CN1CCCNC(=O)c2cccc(c2)C(=O)NCCCN(C)CCCNc2cccc3c2C(=O)c2cccc(c2C3=O)NCCC1  uric acid (mouse, serum; dose not given): 2.4 mg/dL and 2.5 mg/dL and 2.2 mg/dL
Cc1ccc(OCC(=O)N(Cc2cccs2)c2ccn[nH]2)cc1  remaining compound (dog plasma; 750 ng/mL, 1 h, 37 °C, unit not given; reference: time zero): 102
CCCCN1C(=O)c2cccc3c(NCCN4CCOCC4)ccc(c23)C1=O  molar extinction coefficient (MeCN): 5980 M⁻¹ cm⁻¹
O=C1CCC(N2Cc3cc(C(=O)O)c(F)cc3C2=O)C(=O)N1 (centres unmarked)  plasma concentration (cynomolgus monkey, male; oral, 0.3 mg/kg parent drug, 24 h): 0.34 ± 0.16 ng/mL
CN1CCC[C@]1(C)/C=C/S(=O)(=O)NC(=O)Nc1c2c(cc3c1CC(O)C3)CCC2 (some centres unmarked)  AUC(0-t) (human, plasma; oral, 12.5 mg twice daily of parent drug, day 14, metabolite of dosed drug): 37700 ng·h/mL
O=C([O-])CN1CCN(CC(=O)[O-])CCN(C(CO)C(O)CO)CCN(CC(=O)[O-])CC1.[Dy+3] (centres unmarked)  terminal half-life (female cynomolgus monkey, plasma; intravenous, dose not given, up to 48 h): 25.5 h
CCC(CC)CNC(=N)NC(=N)NCCCCCCNC(=N)NC(=N)NCC(CC)CC  scaled CLint (metabolic stability; dog, hepatocytes; 1 µM): 62.8 mL/min/kg
CN(O)C(=O)CCC(=O)NCCCN(CCCCN(CCCNC(=O)CCC(=O)N(C)O)C(=O)CCC(=O)N(C)O)C(=O)CCC(=O)N(C)O.[89Zr]  intact complex (radio-TLC; aqueous buffer; 1 d, pH 5, 37 °C, 89Zr-labelled complex, with: DTPA 100-fold excess): 98.7 ± 0.5%
O=C(Nc1cnccc1-c1ccc([18F])cc1)c1ccnc(NC(=O)C2CC2)c1  SUV (ex vivo gamma counting; GSK-3β transgenic mice, late-stage, small intestine; intravenous, 120 min, mean, P-gp inhibitor pretreatment, with: tariquidar 15 mg/kg iv): 4.54
CCCCN1C(=O)c2cccc3c(NCCCN4CCOCC4)ccc(c23)C1=O  molar extinction coefficient (MeCN): 5300 M⁻¹ cm⁻¹
CN([O-])C(=O)CN1CCNCCN(CC(=O)N(C)[O-])CC1.[89Zr+4]  tracer uptake (mouse, lung; intravenous, 1 h): 0.48 %ID/g
C=CC(=O)Nc1cc(Nc2nccc(-c3c[nH]c4ccccc34)n2)c(OC)cc1N(C)CCN(C)C  recovery (storage stability; human plasma; 24 h, -80 °C, low QC level): 93.7%
CC(C)[C@H](NC(=O)[C@H](Cc1c[nH]c2ccccc12)NC(=O)[C@H](CCCNC(=N)N)NC(=O)[C@H](CCCNC(=N)N)NC(=O)[C@@H](NC(=O)[C@@H](NC(=O)[C@H](CCCNC(=N)N)NC(=O)[C@@H](NC(=O)[C@@H](NC(=O)[C@H](CCCNC(=N)N)NC(=O)[C@H](CCCNC(=N)N)NC(=O)[C@@H](NC(=O)[C@H](Cc1c[nH]c2ccccc12)NC(=O)[C@H](CCCNC(=N)N)NC(=O)[C@H](CCCNC(=N)N)NC(=O)[C@@H](NC(=O)[C@H](CCCNC(=N)N)NC(=O)[C@H](CCCNC(=N)N)NC(=O)[C@@H](NC(=O)[C@H](Cc1c[nH]c2ccccc12)NC(=O)[C@H](CCCNC(=N)N)NC(=O)[C@@H](N)CCCNC(=N)N)C(C)C)C(C)C)C(C)C)C(C)C)C(C)C)C(C)C)C(C)C)C(=O)N[C@@H](CCCNC(=N)N)C(=O)N[C@@H](CCCNC(=N)N)C(=O)O  total CO2 (CD1 mouse, plasma; intravenous, 15 mg/kg, 16 h, [14C]-labelled compound): 23.7 mEq/L
N#Cc1ccc(-c2ccc(COCCCCCN3C[C@H](O)[C@@H](O)[C@H](O)[C@H]3CO)cc2)cc1  selectivity ratio (Beta-glucosidase (GBA2, Homo sapiens, UniProt Q9HCG7); inhibitor, 4MU-β-D-glucopyranoside; HEK293T homogenates overexpressing GBA2; reference: GCS IC50 over GBA2 IC50): 50
CCCCN1C(=O)c2cccc3c(NCCCCCN4CCOCC4)ccc(c23)C1=O  molar extinction coefficient (ethylene glycol): 6000 M⁻¹ cm⁻¹
CCCC[C@H](OC(C)=O)c1ccccc1C(=O)O  MRT(0-inf) (Sprague-Dawley rats, both sexes, whole blood; intravenous, 1.25 mg/kg single dose): 5.2 ± 2.5 h
O=C(CCc1cn([C@@H]2O[C@H](C[18F])[C@@H](O)[C@H](O)[C@H]2O)nn1)Nc1ccc(-c2nnc(-c3ccccn3)nn2)nc1  heart uptake (LS174T xenograft, BALB/c nude mouse, heart; intravenous, 1 h, with: CC49-TCO, Tz/TCO 1:1): 1.7 ± 0.4 %ID/g
CCC1CNC(CC)CN(C(C(=O)[O-])c2ccc(C(=O)[O-])cc2)C(CC)CN(CC(=O)[O-])C(CC)CN1.[Mn+2] (centres unmarked)  Mn content (ICP-MS; BALB/c mouse, kidney; intravenous, 0.05 mmol/kg, 30 min, without anaesthesia): 2.39 ± 0.23 µg/g
C=CC(=O)N1CCCC(n2c(=O)c3ncccc3n(Cc3ccc(Oc4ccccc4)cc3)c2=O)C1 (centres unmarked)  plasma concentration (BALB/c mice, male, plasma; oral, 200 mg/kg, 4 h): 5210 ng/mL
CCC1(CC)CC(=O)N(C2c3cc(C(=O)NC4c5ccccc5CC4O)ccc3OC2(C)COC)C(=N)N1 (centres unmarked)  hepatocyte CLint (metabolic stability; dog, hepatocytes): 4.9 µL/min/10⁶ cells
CCCC[C@H](NC(=O)COCCOCCNC(=O)CN1CCN(CC(=O)O)CCN(CC(=O)O)CC1)C(=O)N[C@H]1CC(=O)NCCCC[C@@H](C(N)=O)NC(=O)[C@H](Cc2c[nH]c3ccccc23)NC(=O)[C@H](CCCNC(=N)N)NC(=O)[C@@H](Cc2ccccc2)NC(=O)[C@H](Cc2c[nH]cn2)NC1=O [fluorine-18 labelled]  tissue uptake (C57 mice B16-F10 melanoma, blood; intravenous, 0.37 MBq, 2 h): 0.17 ± 0.24 %ID/g
O=C(Nc1cnccc1-c1ccc([18F])nc1)c1ccnc(NC(=O)C2CC2)c1  SUV (FVB/NJ mice (both sexes), cerebellum; intravenous, dose not given, 120 min): 0.023
CCC(C(=O)Nc1ccc(C(N)=O)c(F)c1)n1cc(OC)c(-c2cc(Cl)ccc2-n2cc(C(F)(F)F)nn2)cc1=O (centres unmarked)  mild adverse events (healthy male humans; 50 mg, maximum intensity): 28.6%
CCCCN1C(=O)c2cccc3c(NCCCCCCCCN4CCOCC4)ccc(c23)C1=O  fluorescence quantum yield (ethyl acetate): 1.02
Cc1ncc2c(n1)CN(C(=O)Nc1nc(-c3cccs3)ccc1N)C2  free Cmax (C57BL/6 mouse, plasma; oral gavage, 10 mg/kg): 759 ng/mL
COCC1CN(C2CCN(c3cc(OC)c(Nc4ncc(Br)c(Nc5ccc6c(c5P(C)(C)=O)OCCO6)n4)cc3C)CC2)C1  Cmin (EGFR-mutant NSCLC patients, plasma; oral, 90 mg multiple doses, geometric mean): 582 ng/mL
CCCCN1C(=O)c2cccc3c(NCCCCCCCCCCN4CCOCC4)ccc(c23)C1=O  fluorescence quantum yield (chloroform): 0.91
OC1(C(F)(F)F)CCN(c2nc(Nc3ccnc(C(F)(F)F)c3)nc(-c3cccc(C(F)(F)F)n3)n2)C1 (centres unmarked)  MRT(0-inf) (Sprague-Dawley rat, both sexes, plasma; oral gavage, 5 mg/kg): 24.7 ± 1.72 h
C(=N\Nc1nnc(N/N=C/c2ccccc2)c2ccccc12)/c1ccccc1  haemolysis (haemolysis; human; 10 mM, 45 min): 13.8%
C#CC(C)(C)C(=O)SCCOP1(=O)OCC2OC(n3cnc4c(N)ncnc43)CC2OP(=O)(OCCSC(=O)C(C)(C)C#C)OCC2OC(n3cnc4c(N)ncnc43)CC2O1 (centres unmarked)  RDW-SD (non-tumor-bearing mice, blood; intravenous, 1 mg/kg, toxicity study): 19.88 ± 0.17 fL
C=Cc1ccccc1[B-]12OC(=O)C(c3ccccc3)=N[N+]1=Cc1ccc(N(CC)CC)cc1O2 (centres unmarked)  molar absorption coefficient (toluene): 57000 M⁻¹ cm⁻¹
CCc1occc(=O)c1[O-].[Cl-].[W+4].c1cc[cH-]c1.c1cc[cH-]c1  oxidation peak potential (cyclic voltammetry; acetonitrile; reference: Ag/AgCl): 0.67 to 0.73 V
[123I]c1ccc2nc(-c3ccc(-n4ccnn4)nc3)cn2c1  tissue uptake (Wistar rat, pancreas; intravenous, 24 h): not detected
